Measurements from different studies.
Each line is one published result; not all experiments were run side by side. ± gives the spread as reported.
PTGS2: Prostaglandin G/H synthase 2 (PTGS2, Homo sapiens, UniProt P35354)
UniProt P35354, sequence (whole entry, looked up): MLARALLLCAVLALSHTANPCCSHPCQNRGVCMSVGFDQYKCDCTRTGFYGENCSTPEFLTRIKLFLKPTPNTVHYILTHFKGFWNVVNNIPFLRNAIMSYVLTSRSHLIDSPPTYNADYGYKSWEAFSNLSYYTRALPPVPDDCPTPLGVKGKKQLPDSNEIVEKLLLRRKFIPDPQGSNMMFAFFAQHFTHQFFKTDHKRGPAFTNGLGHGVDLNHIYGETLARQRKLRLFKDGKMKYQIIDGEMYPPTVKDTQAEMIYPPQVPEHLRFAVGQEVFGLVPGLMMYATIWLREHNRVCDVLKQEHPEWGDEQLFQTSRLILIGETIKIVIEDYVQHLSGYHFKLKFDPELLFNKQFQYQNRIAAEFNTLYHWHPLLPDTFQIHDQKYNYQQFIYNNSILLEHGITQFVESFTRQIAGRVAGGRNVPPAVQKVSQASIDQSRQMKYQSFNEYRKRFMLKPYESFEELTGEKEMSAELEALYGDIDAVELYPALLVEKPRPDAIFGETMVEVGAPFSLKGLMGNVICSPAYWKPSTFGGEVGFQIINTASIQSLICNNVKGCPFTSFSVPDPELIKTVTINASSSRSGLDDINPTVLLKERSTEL
BCHE: Cholinesterase (BCHE, Homo sapiens, UniProt P06276)
UniProt P06276, sequence (whole entry, looked up): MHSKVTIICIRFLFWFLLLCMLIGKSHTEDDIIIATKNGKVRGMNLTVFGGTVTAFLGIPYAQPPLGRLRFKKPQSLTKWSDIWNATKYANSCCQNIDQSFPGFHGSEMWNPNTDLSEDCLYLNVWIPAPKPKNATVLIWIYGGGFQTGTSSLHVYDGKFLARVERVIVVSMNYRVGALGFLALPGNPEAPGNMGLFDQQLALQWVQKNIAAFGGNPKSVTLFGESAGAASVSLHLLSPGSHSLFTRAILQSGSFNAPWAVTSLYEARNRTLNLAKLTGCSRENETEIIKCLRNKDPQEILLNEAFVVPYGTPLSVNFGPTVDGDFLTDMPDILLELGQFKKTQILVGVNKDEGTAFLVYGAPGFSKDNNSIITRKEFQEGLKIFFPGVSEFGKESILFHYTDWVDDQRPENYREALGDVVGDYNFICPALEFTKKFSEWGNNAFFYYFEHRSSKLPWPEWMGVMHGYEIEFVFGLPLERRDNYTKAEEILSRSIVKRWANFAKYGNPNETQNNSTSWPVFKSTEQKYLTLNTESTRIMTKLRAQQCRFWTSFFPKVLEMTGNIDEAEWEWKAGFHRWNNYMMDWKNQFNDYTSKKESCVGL
Mycosin-1: Mycosin-1 (Mycolicibacterium thermoresistibile, UniProt G7CDQ2)
ACHE: Acetylcholinesterase (ACHE, Homo sapiens, UniProt P22303)
UniProt P22303, sequence (whole entry, looked up): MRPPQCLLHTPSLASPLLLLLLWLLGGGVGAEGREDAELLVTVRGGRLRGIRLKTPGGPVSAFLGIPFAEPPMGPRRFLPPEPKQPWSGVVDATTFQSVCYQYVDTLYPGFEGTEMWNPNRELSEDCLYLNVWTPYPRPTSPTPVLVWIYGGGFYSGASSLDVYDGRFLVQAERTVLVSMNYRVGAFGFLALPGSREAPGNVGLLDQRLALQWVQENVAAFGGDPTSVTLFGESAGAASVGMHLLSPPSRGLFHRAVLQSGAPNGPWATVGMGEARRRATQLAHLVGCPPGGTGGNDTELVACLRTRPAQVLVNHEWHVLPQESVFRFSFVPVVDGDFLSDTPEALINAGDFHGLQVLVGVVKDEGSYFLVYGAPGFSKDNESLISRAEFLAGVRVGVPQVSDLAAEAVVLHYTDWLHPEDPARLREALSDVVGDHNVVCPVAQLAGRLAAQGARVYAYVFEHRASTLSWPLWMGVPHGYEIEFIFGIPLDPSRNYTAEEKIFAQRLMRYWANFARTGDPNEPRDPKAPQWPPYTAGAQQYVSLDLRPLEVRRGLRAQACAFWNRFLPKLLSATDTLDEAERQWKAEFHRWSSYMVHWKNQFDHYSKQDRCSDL
UniProt P28887, sequence (whole entry, looked up): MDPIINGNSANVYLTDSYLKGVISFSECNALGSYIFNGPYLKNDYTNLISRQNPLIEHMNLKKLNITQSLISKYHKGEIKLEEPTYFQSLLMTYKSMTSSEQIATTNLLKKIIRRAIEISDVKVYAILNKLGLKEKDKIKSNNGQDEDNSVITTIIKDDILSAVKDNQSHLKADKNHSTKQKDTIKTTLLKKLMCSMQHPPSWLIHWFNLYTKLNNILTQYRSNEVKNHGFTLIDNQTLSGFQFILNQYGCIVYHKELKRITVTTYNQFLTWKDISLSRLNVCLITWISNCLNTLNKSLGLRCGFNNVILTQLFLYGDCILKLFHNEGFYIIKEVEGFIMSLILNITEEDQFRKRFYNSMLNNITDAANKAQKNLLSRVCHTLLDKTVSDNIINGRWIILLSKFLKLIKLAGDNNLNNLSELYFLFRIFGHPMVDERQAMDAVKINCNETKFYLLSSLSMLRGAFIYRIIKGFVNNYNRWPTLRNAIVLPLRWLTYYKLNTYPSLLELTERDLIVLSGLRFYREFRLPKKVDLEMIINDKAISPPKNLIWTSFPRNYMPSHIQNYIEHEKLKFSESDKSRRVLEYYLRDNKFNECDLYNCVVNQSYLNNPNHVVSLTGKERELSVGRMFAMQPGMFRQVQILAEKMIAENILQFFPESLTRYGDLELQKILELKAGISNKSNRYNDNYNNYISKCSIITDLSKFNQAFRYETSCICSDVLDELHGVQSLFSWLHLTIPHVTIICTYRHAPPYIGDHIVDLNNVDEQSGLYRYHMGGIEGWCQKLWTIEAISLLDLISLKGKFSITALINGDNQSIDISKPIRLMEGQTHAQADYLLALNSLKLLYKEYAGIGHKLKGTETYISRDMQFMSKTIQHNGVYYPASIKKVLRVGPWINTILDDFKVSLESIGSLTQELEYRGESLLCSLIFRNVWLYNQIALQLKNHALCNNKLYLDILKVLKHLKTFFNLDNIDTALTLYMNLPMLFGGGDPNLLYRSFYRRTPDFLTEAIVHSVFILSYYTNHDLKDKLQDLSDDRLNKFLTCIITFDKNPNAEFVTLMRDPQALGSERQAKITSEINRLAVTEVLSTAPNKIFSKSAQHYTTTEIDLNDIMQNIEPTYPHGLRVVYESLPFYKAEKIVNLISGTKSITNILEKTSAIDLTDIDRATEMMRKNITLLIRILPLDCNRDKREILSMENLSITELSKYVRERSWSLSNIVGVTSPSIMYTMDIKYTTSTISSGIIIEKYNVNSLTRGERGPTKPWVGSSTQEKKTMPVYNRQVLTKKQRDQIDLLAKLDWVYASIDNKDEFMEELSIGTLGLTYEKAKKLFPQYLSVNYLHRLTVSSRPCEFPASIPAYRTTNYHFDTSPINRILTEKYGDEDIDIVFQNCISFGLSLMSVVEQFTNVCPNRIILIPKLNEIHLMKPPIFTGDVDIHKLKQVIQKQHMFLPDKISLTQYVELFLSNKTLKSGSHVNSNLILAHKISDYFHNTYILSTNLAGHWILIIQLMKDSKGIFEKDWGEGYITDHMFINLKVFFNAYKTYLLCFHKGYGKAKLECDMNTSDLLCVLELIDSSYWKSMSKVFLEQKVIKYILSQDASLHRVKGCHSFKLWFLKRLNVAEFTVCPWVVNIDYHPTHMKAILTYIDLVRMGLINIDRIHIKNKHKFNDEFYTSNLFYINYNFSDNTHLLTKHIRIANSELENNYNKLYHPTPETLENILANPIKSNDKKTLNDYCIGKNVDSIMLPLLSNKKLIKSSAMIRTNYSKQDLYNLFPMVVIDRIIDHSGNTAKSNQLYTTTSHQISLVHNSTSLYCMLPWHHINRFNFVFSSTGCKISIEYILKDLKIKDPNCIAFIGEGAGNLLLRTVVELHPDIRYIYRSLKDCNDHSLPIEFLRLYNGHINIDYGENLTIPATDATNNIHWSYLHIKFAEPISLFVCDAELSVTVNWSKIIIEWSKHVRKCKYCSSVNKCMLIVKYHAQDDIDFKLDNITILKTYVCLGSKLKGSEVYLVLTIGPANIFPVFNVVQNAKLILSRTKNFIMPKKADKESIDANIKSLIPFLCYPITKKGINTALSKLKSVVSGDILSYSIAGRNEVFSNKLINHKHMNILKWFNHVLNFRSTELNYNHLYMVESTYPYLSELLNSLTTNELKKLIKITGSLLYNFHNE
UniProt Q98982, sequence (whole entry, looked up): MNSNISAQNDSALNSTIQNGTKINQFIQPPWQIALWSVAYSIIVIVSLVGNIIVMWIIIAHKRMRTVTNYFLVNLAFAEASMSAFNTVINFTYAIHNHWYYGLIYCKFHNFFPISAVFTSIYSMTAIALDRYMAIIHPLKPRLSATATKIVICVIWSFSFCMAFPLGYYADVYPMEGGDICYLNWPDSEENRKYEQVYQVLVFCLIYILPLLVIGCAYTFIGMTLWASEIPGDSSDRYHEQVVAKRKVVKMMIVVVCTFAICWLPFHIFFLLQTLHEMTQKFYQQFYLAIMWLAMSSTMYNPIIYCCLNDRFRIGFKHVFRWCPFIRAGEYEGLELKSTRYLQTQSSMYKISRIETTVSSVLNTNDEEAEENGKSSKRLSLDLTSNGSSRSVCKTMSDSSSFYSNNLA
UniProt P19256, sequence (whole entry, looked up): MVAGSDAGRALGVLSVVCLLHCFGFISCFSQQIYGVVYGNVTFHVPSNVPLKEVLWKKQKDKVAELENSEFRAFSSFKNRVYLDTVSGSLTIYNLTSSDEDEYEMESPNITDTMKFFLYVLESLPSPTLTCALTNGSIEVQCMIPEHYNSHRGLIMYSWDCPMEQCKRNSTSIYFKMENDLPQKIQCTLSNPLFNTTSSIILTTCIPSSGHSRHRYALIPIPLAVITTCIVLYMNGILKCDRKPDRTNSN
UniProt P29992, sequence (whole entry, unmodified, looked up): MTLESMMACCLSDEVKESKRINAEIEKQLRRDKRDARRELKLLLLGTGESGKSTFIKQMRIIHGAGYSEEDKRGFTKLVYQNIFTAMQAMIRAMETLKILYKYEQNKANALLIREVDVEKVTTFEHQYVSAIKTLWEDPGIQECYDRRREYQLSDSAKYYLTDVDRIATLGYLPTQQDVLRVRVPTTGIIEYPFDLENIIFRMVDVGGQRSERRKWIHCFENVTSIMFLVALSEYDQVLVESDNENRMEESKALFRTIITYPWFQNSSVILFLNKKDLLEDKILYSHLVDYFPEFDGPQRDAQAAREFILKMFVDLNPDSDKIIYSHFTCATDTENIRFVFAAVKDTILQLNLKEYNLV

Structure (SMILES)	target	test	test system	conditions	scale	inhibition
Cc1ccc(C(=O)/C=C/c2ccc(N(C)CCO)cc2)o1	PTGS2	enzyme activity, inhibitor, ELISA		40 µg/mL		80.7 to 92.5%
Cc1cc(C)n(C(C(=O)OC(C)C)n2nc(C)cc2C)n1.F[P-](F)(F)(F)(F)F.[Cu+].c1ccc(P(c2ccccc2)c2ccccc2)cc1	P4HB (Homo sapiens, UniProt P07237)	enzyme activity, inhibitor		50 µM		~90%
O=C(O)CCCC(=O)O	BCHE	enzyme activity, inhibitor, Ellman		1000 µg/mL		78.9%
CCN(CC)c1ncnc2c1ncn2[C@@H]1O[C@H](COP(=O)(O)OP(=O)(O)C(Br)(Br)P(=O)(O)O)[C@@H](O)[C@H]1O	Ectonucleoside triphosphate diphosphohydrolase 2 (Rattus norvegicus, UniProt O35795)	enzyme activity, inhibitor		1 mM		50%
COc1cc(/N=N/C(C#N)C#N)cc(OC)c1OC	Mycosin-1	enzyme activity		150 µM	baseline: DMSO control	68%
COc1cc(OC)c(C(=O)/C=C/c2ccc(N(C)CCO)cc2)c(OC)c1	PTGS2	enzyme activity, inhibitor, ELISA		40 µg/mL		80.7 to 92.5%
CC(C)C[C@H](NC(=O)[C@@H]1CCCN1C(=O)[C@@H]1NC(=O)[C@H](Cc2ccccc2)NC(=O)CNC(=O)[C@H](NC(=O)[C@@H](N)Cc2ccc(O)cc2)C(C)(C)SSC1(C)C)C(=O)N[C@@H](Cc1c[nH]c2ccccc12)C(=O)NCc1cc(C(F)(F)F)cc(C(F)(F)F)c1	OPRM1 (Cavia porcellus, UniProt P97266)	electrically stimulated contraction, agonist	guinea pig isolated ileum	1 µM		0.6%
CC(C)CC(O)(CC(C)C)c1cn(C(=O)N2CCCC2)nn1	Prolyl endopeptidase-like (Prepl, Mus musculus, UniProt Q8C167)	enzyme activity	mouse, brain	i.p., 0.8 mg/kg, apparent, not considered true		50 to 60%
COc1ccc(N2C(=O)CSC2c2cccc(Br)c2)c(OC)c1 (stereo not drawn)	ARP2/ARP3 (Saccharomyces cerevisiae, UniProt P32381+P47117)	actin polymerization, pyrenyl-actin		concentration not given		no inhibition
Cc1ccc(N2CC3CCC(C2)N3C)cc1C(=O)N[C@H](C)c1cc(-c2cnn(C)c2)nc2ccccc12	CAPN1 (Homo sapiens, UniProt P07384)	enzyme activity		concentration not given		no inhibition
CC(C)C[C@@H]1NC(=O)[C@H](C(C)C)NC(=O)[C@H](C)NC(=O)[C@H](Cc2ccc(O)cc2)NC(=O)[C@H](CCC(N)=O)NC(=O)[C@H](CC(C)C)NC(=O)[C@@H](Cc2ccc(O)cc2)NC(=O)CSC[C@@H](C(N)=O)NC(=O)[C@H](CCC(=O)O)NC(=O)[C@H](CCCNC(=N)N)NC(=O)[C@H](CCCNC(=N)N)NC(=O)[C@H](CCCCN)NC(=O)[C@H](Cc2c[nH]cn2)NC(=O)[C@H](CCCNC(=N)N)NC1=O	TMPRSS2 (Homo sapiens, UniProt O15393)	enzyme activity		10 µM		inactive
CC(NC(=O)C=Cc1ccco1)C(=O)NC(Cc1ccccc1)C(N)=O (stereo not drawn)	Mycosin-1	enzyme activity		150 µM	baseline: DMSO control	61%
[Cl][Au-][P+](c1ccccc1)(c1ccccc1)c1cc[cH-]c1.[Cl][Au-][P+](c1ccccc1)(c1ccccc1)c1cc[cH-]c1.[Cl][Ti+2][Cl]	AKT2 (Homo sapiens, UniProt P31751)	kinase activity		10 µM		≥ 50%
Cc1ccc(C(=O)Nc2cccc3cnccc23)cc1S(=O)(=O)N1CCCCC1	Trpv1 (Rattus norvegicus, UniProt O35433)	capsaicin-activated current, inhibitor, two-electrode voltage clamp	Xenopus oocytes	100 µM, together with: capsaicin 1 µM		inhibited
CSCC[C@H](NC(=O)[C@H](CC(C)C)NC(=O)CNC(=O)[C@H](Cc1ccccc1)NC(=O)[C@H](Cc1ccccc1)NC(=O)[C@H](CCC(N)=O)NC(=O)[C@H](CCC(N)=O)NC(=O)[C@@H]1CCCN1C(=O)[C@H](CCCCNC(=O)c1ccc(-c2c3ccc(=[N+](C)C)cc-3oc3cc(N(C)C)ccc23)c(C(=O)[O-])c1)NC(=O)[C@@H]1CCCN1C(=O)[C@@H](N)CCCNC(=N)N)C(N)=O	Substance-P receptor (TACR1, Aquarana catesbeiana, UniProt Q98982)	M-type K+ current, whole-cell patch clamp	bullfrog sympathetic neurons	1 µM		57 ± 33%
CC[C@H](C)[C@@H]1NC(=O)[C@@H]2CCCN2C(=O)[C@@H]2CCCN2C(=O)[C@H]([C@@H](C)CC)NC(=O)[C@H](CO)NC(=O)[C@H](CCCCN)NC(=O)[C@H]([C@@H](C)O)NC(=O)[C@@H]2CSSC[C@H](NC1=O)C(=O)N[C@@H](Cc1ccccc1)C(=O)N1CCC[C@H]1C(=O)N[C@@H](CC(=O)O)C(=O)NCC(=O)N[C@@H](CCCNC(=N)N)C(=O)N2	Lymphocyte function-associated antigen 3, with CD2 (CD58, Homo sapiens, UniProt P19256)		Jurkat	5 µM		< 20%
CN(C)C=Nc1c(C#N)cnn1-c1ccc(F)c(Cl)c1	Aurora kinase B-A (Xenopus laevis, UniProt Q6DE08)	kinase activity		concentration not given		no inhibition
CC(C)[C@H]1NC(=O)[C@H](CO)NC(=O)c2cc3cc(c2)C(=O)NC[C@H](NC(=O)[C@H](Cc2c[nH]cn2)NC(=O)[C@H](Cc2ccc(C(F)(F)P(=O)(O)O)cc2)NC(=O)[C@@H]2CCCN2C1=O)C(=O)N[C@@H](Cc1ccccc1)C(=O)N[C@@H](Cc1ccc2ccccc2c1)C(=O)N[C@@H](CCCNC(=N)N)C(=O)N[C@@H](CCCNC(=N)N)C(=O)N[C@@H](CCCNC(=N)N)C(=O)N[C@@H](CCCNC(=N)N)C(=O)N[C@H](C(=O)N[C@@H](CCCCN)C(N)=O)CNC3=O	PTPRC (Homo sapiens, UniProt P08575)	enzyme activity, inhibitor, absorbance		1 µM		≤ 10%
S=C(NCc1ccccn1)NCc1ccccn1	ACHE	enzyme activity, inhibitor		1000 µg/mL		78.7%
O=c1c(O)c(-c2cc(O)ccc2O)oc2cc(O)cc(O)c12	BCHE	enzyme activity, inhibitor, Ellman		62.5 µg/mL		45.2%
O=C(O)/C=C/c1ccc(O)cc1	ACHE	inhibitor		62.5 µg/mL		48.2 ± 1.4%
O=C(O)/C=C/c1cc(O)cc(O)c1	BCHE	enzyme activity, inhibitor, Ellman		125 µg/mL		54.2%
O=S(=O)(CCc1cn(-c2cnc3ccccc3c2)nn1)N1CCc2ccccc2C1	BCHE	enzyme activity, inhibitor		20 µM		18.6%
N#CC1(c2ccc3c(N)ncnn23)OC(COP(=O)(O)OP(=O)(O)OP(=O)(O)O)C(O)C1O (stereo not drawn)	RNA-directed RNA polymerase L (Human respiratory syncytial virus A, UniProt P28887)	RNA synthesis		concentration not given		inhibited
CC(=O)NC(Cc1ccc(Br)c(Cl)c1)C(=O)N[C@@H](C)C(=O)N1CCC[C@H]1C(=O)N1CCC[C@H]1C(=O)N[C@@H](CCC(=O)O)C(=O)N[C@@H](Cc1c[nH]cn1)C(=O)N[C@@H](CO)C(=O)N[C@H](C(=O)N[C@@H](C)C(N)=O)[C@@H](C)OP(=O)(O)O (stereo partly drawn)	AKT1 (Homo sapiens, UniProt P31749)	enzyme activity, inhibitor		10 µM		0.08%
N#C[C@@H](/N=N/c1ccc(S(=O)(=O)O)cc1)C(N)=O	Mycosin-1	enzyme activity		150 µM	baseline: DMSO control	56%
C=C1C(=O)N[C@@H](C)C(=O)N(C)[C@@H](C)C(=O)N[C@@H]([C@H](OC(=O)[C@@H](NC(C)=O)[C@H](O)C(C)C)C(C)C)C(=O)N(C)[C@@H]([C@@H](C)OC)C(=O)O[C@H](C)[C@H](NC(C)=O)C(=O)O[C@H](Cc2ccccc2)C(=O)N1C	Guanine nucleotide-binding protein subunit alpha-11 (Homo sapiens, UniProt P29992, Q209L)	basal IP1 accumulation, inhibitor	HEK293 expressing Gα11 Q209L	concentration not given		no effect

Excerpt of the above:
Structure (SMILES)	target	test	test system	conditions	scale	inhibition
Cc1ccc(C(=O)/C=C/c2ccc(N(C)CCO)cc2)o1	PTGS2	enzyme activity, inhibitor, ELISA		40 µg/mL		80.7 to 92.5%
Cc1cc(C)n(C(C(=O)OC(C)C)n2nc(C)cc2C)n1.F[P-](F)(F)(F)(F)F.[Cu+].c1ccc(P(c2ccccc2)c2ccccc2)cc1	P4HB (Homo sapiens, UniProt P07237)	enzyme activity, inhibitor		50 µM		~90%
O=C(O)CCCC(=O)O	BCHE	enzyme activity, inhibitor, Ellman		1000 µg/mL		78.9%
CCN(CC)c1ncnc2c1ncn2[C@@H]1O[C@H](COP(=O)(O)OP(=O)(O)C(Br)(Br)P(=O)(O)O)[C@@H](O)[C@H]1O	Ectonucleoside triphosphate diphosphohydrolase 2 (Rattus norvegicus, UniProt O35795)	enzyme activity, inhibitor		1 mM		50%
